Results pooled from the literature.
Compare with care: the assays were run in different laboratories.
Technique: steady-state kinetics
B1: speck Y220F (Drosophila melanogaster, UniProt Q94521); chain MEDALTVSGKPAACPVDQDCPYTIELIQPEDGEAVIAMLKTFFFKDEPLNTFLDLGECKELEKYSLKPLPDNCSYKAVNKKGEIIGVFLNGLMRRPSPDDVPEKAADSCEHPKFKKILSLMDHVEEQFNIFDVYPDEELILDGKILSVDTNYRGLGIAGRLTERAYEYMRENGINVYHVLCSSHFSARVMEKLGFHEVFRMQFADYKPQGEVVFKPAAPHVGIQVMAKEVGPAKAAQTKL
B2: PLBD1 self-cleaved, cathepsin L-processed (Homo sapiens, UniProt Q6P4A8); chain 1 GVYYATAYWMPAEKTVQVKNVMDKNGDAYGFYNNSVKTTGWGILEIRAGYGSQTLSNEIIMFVAGFLEGYLTAPHMNDHYTNLYPQLITKPSIMDKVQDFMEKQDKWTRKNIKEYKTDSFWRHTGYVMAQIDGLYVGAKKRAILEGTKPMTLFQIQFLNSVGDLLDLIPS; chain 2 CSALIKVLPGFENILFAHSSWYTYAAMLRIYKHWDFNVIDKDTSSSRLSFSSYPGFLESLDDFYILSSGLILLQTTNSVFNKTLLKQVIPETLLSWQRVRVANMMADSGKRWADIFSKYNSGTYNNQYMVLDLKKVKLNHSLDKGTLYIVEQIPTYVEYSEQTDVLRKGYWPSYNVPFHEKIYNWSGYPLLVQKLGLDYSYDLAPRAKIFRRDQGKVTDTASMKYIMRYNNYKKDPYSRGDPCNTICCREDLNSPNPSPGGCYDTKVADIYLASQYTSYAISGPTVQGGLPVFRWDRFNKTLHQGMPEVYNFDFITMKPILKLDIK
B3: vioC (Streptomyces vinaceus, UniProt Q6WZB0); chain MTESPTTHHGAAPPDSVATPVRPWSEFRLTPAEAAAAAALAARCAQRYDETDGPEFLLDAPVIAHELPRRLRTFMARARLDAWPHALVVRGNPVDDAALGSTPVHWRTARTPGSRPLSFLLMLYAGLLGDVFGWATQQDGRVVTDVLPIKGGEHTLVSSSSRQELGWHTEDAFSPYRADYVGLLSLRNPDGVATTLAGVPLDDLDERTLDVLFQERFLIRPDDSHLQVNNSTAQQGRVEFEGIAQAADRPEPVAILTGHRAAPHLRVDGDFSAPAEGDEEAAAALGTLRKLIDASLYELVLDQGDVAFIDNRRAVHGRRAFQPRYDGRDRWLKRINITRDLHRSRKAWAGDSRVLGQR
B4: enzyme R108A (Sinorhizobium meliloti, UniProt Q92UV7); chain MTNAEVTIAVRHEPMRIAGRLVDTDDRVEVRYPWNDTVVGTVPAGRAEHAREAFAIAAAYQPKLTRYERQKILLATAEALAARKEEISDVITLELGISKADSLYEVGAAFDVFTLAGQMCIRDDGEIFSCDLTPHGKARKIFTMREPLTAISAITPFNHPLNMVAHKVAPAIATNNCVVVKPTELTPMTALLLADILYEAGLPPEMLSVVTGWPADIGMEMITNPHVDLVTFTGSVPVGKLIAANAHYKRQVLELGGNDPLIILNDLSDDDLARAADLAVAGATKNSGQRCTAVKRILCQESVADRFVPLVLERAKRLRFGDPMDRSTDLGTVIHEKAAALFEERVMRAAEEGADILYHPGRSGALLPPIVVDRVPHQSDLVLEETFGPIIPIVRVPDDDDATITLSNSTAFGLSSGVCTNDYRRMQKYIAGLKVGTVNIWEVPGYRIEMSPFGGIKDSGNGYKEGVIEAMKSFTNVKTFSLPWP
B5: protein G96D (Streptomyces coelicolor, UniProt P16544); chain MATQDSEVALVTGATSGIGLEIARRLGKEGLRVFVCARGEEGLRTTLKELREAGVEADGRTCDVRSVPEIEALVAAVVERYGPVDVLVNNAGRPGDGATAELADELWLDVVETNLTGVFRVTKQVLKAGGMLERGTGRIVNIASTGGKQGVVHAAPYSASKHGVVGFTKALGLELARTGITVNAVCPGFVETPMAASVREHYSDIWEVSTEEAFDRITARVPIGRYVQPSEVAEMVAYLIGPGAAAVTAQALNVCGGLGNY
B6: enzyme (Mortierella alpina, UniProt U5Y6A8); chain MAPPHVVDEQVRRRIVVEDEIQSKKQFERNYVPMDFTIKEIRDAIPAHLFIRDTTKSILHVVKDLVTIAIVFYCATFIETLPSLALRVPAWITYWIIQGTVMVGPWILAHECGHGAFSDSKTINTIFGWVLHSALLVPYQAWAMSHSKHHKGTGSMSKDVVFIPATRSYKGLPPLEKPAAEEEVLEQEHHHHEESIFAETPIYTLGALFFVLTLGWPLYLIMNFSGHEAPHWVNHFQTVAPLYEPHQRKNIFYSNCGIVAMGSILTYLSMVFSPLTVFMYYGIPYLGVNAWIVCITYLQHTDPKVPHFRDNEWNFQRGAACTIDRSFGTIVNHLHHHIGDSHQCHHMFSQMPFYNAVEATKHLKAKLGKYYIFDDTPIAKALYRNWRECKFVEDEGDVVFYKH
B7: UGT1A9 (Homo sapiens, UniProt O60656); chain GKLLVVPMDGSHWFTMRSVVEKLILRGHEVVVVMPEVSWQLGRSLNCTVKTYSTSYTLEDLDREFKAFAHAQWKAQVRSIYSLLMGSYNDIFDLFFSNCRSLFKDKKLVEYLKESSFDAVFLDPFDNCGLIVAKYFSLPSVVFARGILCHYLEEGAQCPAPLSYVPRILLGFSDAMTFKERVRNHIMHLEEHLLCHRFFKNALEIASEILQTPVTEYDLYSHTSIWLLRTDFVLDYPKPVMPNMIFIGGINCHQGKPLPMEFEAYINASGEHGIVVFSLGSMVSEIPEKKAMAIADALGKIPQTVLWRYTGTRPSNLANNTILVKWLPQNDLLGHPMTRAFITHAGSHGVYESICNGVPMVMMPLFGDQMDNAKRMETKGAGVTLNVLEMTSEDLENALKAVINDKSYKENIMRLSSLHKDRPVEPLDLAVFWVEFVMRHKGAPHLRPAAHDLTWYQYHSLDVIGFLLAVVLTVAFITFKCCAYGYRKCLGKKGRVKKAHKSKTH
B8: protein (UniProt A0A4Y6I1D9); chain MTLDEKPRKFDGLDIEGVAFAASVTALGAAKPLALGGAGDRGLEINGNYIKFTAIGIYVEDGIIPHLSPKLRGKTVEELCEKELLFEEVISAPFEKLVRVVFLVPLTGIQYSEKVLERISVQSLFTDIKEEHKQQFLEIFKGESFPPRSSVILSFSKEGLKVAFAKGDDVPSKAVGTIEDATFADAVLATIIWKEGVSPAAKVSLAERLSKCL
B9: ST3GAL2 (Homo sapiens, UniProt Q16842); chain HHSMATLPYLDSGALDGTHRVKLVPGYAGLQRLSKERLSGKSCACRRCMGDAGASDWFDSHFDGNISPVWTRENMDLPPDVQRWWMMLQPQFKSHNTNEVLEKLFQIVPGENPYRFRDPHQCRRCAVVGNSGNLRGSGYGQDVDGHNFIMRMNQAPTVGFEQDVGSRTTHHFMYPESAKNLPANVSFVLVPFKVLDLLWIASALSTGQIRFTYAPVKSFLRVDKEKVQIYNPAFFKYIHDRWTEHHGRYPSTGMLVLFFALHVCDEVNVYGFGADSRGNWHHYWENNRYAGEFRKTGVHDADFEAHIIDMLAKASKIEVYRGN
B10: cbh1 (Trichoderma reesei, UniProt P62694); chain QSACTLQSETHPPLTWQKCSSGGTCTQQTGSVVIDANWRWTHATNSSTNCYDGNTWSSTLCPDNETCAKNCCLDGAAYASTYGVTTSGNSLSIGFVTQSAQKNVGARLYLMASDTTYQEFTLLGNEFSFDVDVSQLPCGLNGALYFVSMDADGGVSKYPTNTAGAKYGTGYCDSQCPRDLKFINGQANVEGWEPSSNNANTGIGGHGSCCSEMDIWEANSISEALTPHPCTTVGQEICEGDGCGGTYSDNRYGGTCDPDGCDWNPYRLGNTSFYGPGSSFTLDTTKKLTVVTQFETSGAINRYYVQNGVTFQQPNAELGSYSGNELNDDYCTAEEAEFGGSSFSDKGGLTQFKKATSGGMVLVMSLWDDYYANMLWLDSTYPTNETSSTPGAVRGSCSTSSGVPAQVESQSPNAKVTFSNIKFGPIGSTGNPSGGNPPGGNRGTTTTRRPATTTGSSPGPTQSHYGQCGGIGYSGPTVCASGTTCQVLNPYYSQCL
B11: MSS116 Q412A (Saccharomyces cerevisiae, UniProt P15424); chain LYNDGNRDQRNFGRNQRNNNSNRYRNSRFNSRPRTRSREDDDEVHFDKTTFSKLIHVPKEDNSKEVTLDSLLEEGVLDKEIHKAITRMEFPGLTPVQQKTIKPILSSEDHDVIARAKTGTGKTFAFLIPIFQHLINTKFDSQYMVKAVIVAPTRDLALQIEAEVKKIHDMNYGLKKYACVSLVGGTDFRAAMNKMNKLRPNIVIATPGRLIDVLEKYSNKFFRFVDYKVLDEADRLLEIGFRDDLETISGILNEKNSKSADNIKTLLFSATLDDKVQKLANNIMNKKECLFLDTVDKNEPEAHERIDQSVVISEKFANSIFAAVEHIKKQIKERDSNYKAIIFAPTVKFTSFLCSILKNEFKKDLPILEFHGKITANKRTSLVKRFKKDESGILVCTDVGARGMDFPNVHEVLQIGVPSELANYIHRIGRTARSGKEGSSVLFICKDELPFVRELEDAKNIVIAKQEKYEPSEEIKSEVLEAVTEEPEDISDIVISLISSYRSCIKEYRFSERRILPEIASTYGVLLNDPQLKIPVSRRFLDKLGLSRSPIGKAMFEIRDYSSRDGNNKSYDYDDDSEISFRGNKNYNNRSQNRDYDDEPFRRSNNNRRSFSRSNDKNNYSSRNSNIY

For `protein (Streptomyces glaucescens, UniProt B0B0T9)`, the Km was 306 µM (Cc1cn([C@H]2C[C@H](O)[C@@H](COP(=O)(O)OP(=O)(O)O[C@H]3O[C@H](C)[C@@H](N)[C@H](O)[C@H]3O)O2)c(=O)[nH]c1=O; pH 7.5, 30 °C, apparent, added: maltose 1 mM).
`B1 (speck Y220F)` gave a Km of 430 µM (CC(=O)SCCNC(=O)CCNC(=O)[C@H](O)C(C)(C)COP(=O)(O)OP(=O)(O)OC[C@H]1O[C@@H](n2cnc3c(N)ncnc32)[C@H](O)[C@@H]1OP(=O)(O)O; pH 7.2, 30 °C).
The Km of `dxs (Escherichia coli, UniProt P77488)` is reported as 50 µM (O=C(O)C(=O)CO; pH 6.8, 37 °C).
The Km of `PGDH1 (Oryza sativa, UniProt B7F6I8)` is reported as 175 µM (O=C(O)[C@H](O)COP(=O)(O)O; pH 9, 25 °C, NaCl 0.1 M, apparent, added: NAD+).
`B2` has a Km of 13.1 µM (Cc1cc(=O)oc2cc(NC(=O)[C@@H](N)CC(C)C)ccc12; pH 4.5, 37 °C, added: cathepsin L).
For `B3 (vioC)`, the Km was 3400 µM (N=C(N)NCCC[C@H](N)C(=O)O; pH 8, 30 °C, apparent, added: alpha-ketoglutarate 1.0 mM).
With `B4 (enzyme R108A)` the Km was 18 µM (NC(=O)c1ccc[n+]([C@@H]2O[C@H](COP(=O)(O)OP(=O)(O)OC[C@H]3O[C@@H](n4cnc5c(N)ncnc54)[C@H](O)[C@@H]3O)[C@@H](O)[C@H]2O)c1; pH 7.5, 30 °C, cofactor varied).
`B5 (protein G96D)` has a Km of 33800 µM (O[C@H]1CCCc2ccccc21; pH 7.4, phosphate 400 mM, NADPH 250 µM printed, added: NADP+, reverse reaction).
The Km of `B6 (enzyme)` is reported as 87.9 µM (CCCCC/C=C\C/C=C\C/C=C\CCCCC(=O)SCCNC(=O)CCNC(=O)[C@H](O)C(C)(C)COP(=O)(O)OP(=O)(O)OC[C@H]1O[C@@H](n2cnc3c(N)ncnc32)[C@H](O)[C@@H]1OP(=O)(O)O; pH 7.5, 28 °C).
`enzyme (Vitis vinifera, UniProt F6H697)` has a Km of 10.4 µM (O=C(O)Cc1c[nH]c2ccccc12; pH 8.6, 25 °C).
The Km of `B7 (UGT1A9)` is reported as 1.27 µM (COc1c(O)cc(O)c2c(=O)cc(-c3ccccc3)oc12; pH 7.4, 37 °C).
`B8 (protein)` has a Km of 96.5 µM (O=C(/C=C/c1ccc(O)cc1)c1c(O)cc(O)cc1O).
For `B9 (ST3GAL2)`, the Km was 1710 µM (CC(=O)N[C@H]1[C@H](O[C@H]2[C@@H](O)[C@@H](CO)O[C@@H](O[C@H]3[C@H](O)[C@@H](O)[C@H](Oc4ccc([N+](=O)[O-])cc4)O[C@@H]3CO)[C@@H]2O)O[C@H](CO)[C@@H](O)[C@@H]1O[C@@H]1O[C@H](CO)[C@H](O)[C@H](O)[C@H]1O; pH 6, added: CMP-Neu5Ac).
`Gcs (Leishmania donovani, UniProt Q67BG3)` has a Km of 6250 µM (Nc1ncnc2c1ncn2[C@@H]1O[C@H](COP(=O)(O)OP(=O)(O)OP(=O)(O)O)[C@@H](O)[C@H]1O; apparent, added: L-glutamate, L-cysteine, Mg2+).
`B10 (cbh1)` gave a Km of 590 µM ([H][C@@]1(O[C@H]2[C@H](O)[C@@H](O)[C@H](Oc3ccc([N+](=O)[O-])cc3)O[C@@H]2CO)O[C@H](CO)[C@H](O)[C@H](O)[C@H]1O; pH 5, 25 °C, apparent).
`B11 (MSS116 Q412A)` gave a Km of 143 µM (Nc1ncnc2c1ncn2[C@@H]1O[C@H](COP(=O)(O)OP(=O)(O)OP(=O)(O)O)[C@@H](O)[C@H]1O; pH 7.5, 37 °C, added: ATP).
With `enzyme (Sphingomonas paucimobilis, UniProt Q76LC4)` the Km was 2440 µM (O=[N+]([O-])c1ccc(O[C@@H]2O[C@@H](CO)[C@H](O)[C@@H](O)[C@H]2O)cc1; pH 8, 37 °C).

Excerpt of the above:
`B5 (protein G96D)` has a Km of 33800 µM (O[C@H]1CCCc2ccccc21; pH 7.4, phosphate 400 mM, NADPH 250 µM printed, added: NADP+, reverse reaction).
